Results collected from several papers.
Protocols differ between the studies behind these lines. Numbers after ± are the reported error.
AR: Androgen receptor (AR, Homo sapiens, UniProt P10275)
VHL with Elongin B/C: von Hippel-Lindau disease tumor suppressor, with Elongin B/C (VHL, Homo sapiens, UniProt P40337)
LGALS3: Galectin-3 (LGALS3, Homo sapiens, UniProt P17931)
T1: FMN riboswitch RNA (Escherichia coli); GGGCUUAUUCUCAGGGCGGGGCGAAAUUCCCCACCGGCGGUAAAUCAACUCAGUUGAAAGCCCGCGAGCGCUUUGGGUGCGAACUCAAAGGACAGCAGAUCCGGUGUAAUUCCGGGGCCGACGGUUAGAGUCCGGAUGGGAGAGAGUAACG

For `CC(C)C[C@H](NC(=O)CN)C(=O)N[C@@H](CO)C(=O)N[C@@H](Cc1ccccc1)C(=O)N[C@@H](C)C(=O)N[C@@H](Cc1ccccc1)C(=O)N1CCC[C@H]1C(=O)N[C@@H](C)C(=O)N[C@@H](CCCCN)C(=O)N[C@@H](CC(=O)O)C(=O)N[C@@H](C)C(=O)N[C@@H](CCC(=O)O)C(=O)N[C@@H](CC(N)=O)C(=O)N[C@@H](C)C(=O)N[C@@H](CO)C(=O)N[C@@H](CO)C(=O)N1CCC[C@H]1C(=O)N[C@H](C(=O)O)C(C)C`, the ΔG was -37.7 kJ/mol (Peptide cyclase 1 (Gypsophila vaccaria, UniProt R4P353, S562A); ITC; pH 8.0, 25 °C).
`O=C(Nc1ccc(C(=O)Nc2ccc(C(=O)Nc3ccc(S(=O)(=O)O)c4cc(S(=O)(=O)O)cc(S(=O)(=O)O)c34)cc2)cc1)Nc1ccc(C(=O)Nc2ccc(C(=O)Nc3ccc(S(=O)(=O)O)c4cc(S(=O)(=O)O)cc(S(=O)(=O)O)c34)cc2)cc1` has a Km of 225 ± 34.5 µM (Neutrophil elastase (ELANE, Homo sapiens, UniProt P08246); substrate S-1384 hydrolysis; pH 7.4, 37 °C, enzyme 600 nM).
The Hill slope of `Oc1c(C(Nc2nc3ccccc3s2)c2cccc(OCc3ccccc3)c2)ccc2cccnc12` (centres unmarked) is reported as 1.19 ± 0.07 (Genome polyprotein, NS2B-NS3 protease (GP1, West Nile virus, UniProt Q9Q6P4); enzyme activity, inhibitor; 0.1% CHAPS, added: tetrapeptide substrate).
The degradation of `Cc1ncsc1-c1ccc([C@H](C)NC(=O)[C@@H]2C[C@@H](O)CN2C(=O)[C@@H](NC(=O)CN2CCN(CC3CCN(CC(=O)N4CCN(c5ncc(-c6cc(NC(=O)c7ccc(F)cc7C(F)(F)F)c(N7C[C@@H](C)N(C)[C@@H](C)C7)cc6F)cn5)CC4)CC3)CC2)C(C)(C)C)cc1` is reported as 35% (WD repeat protein WDS (Spodoptera frugiperda, UniProt A0A2H1VC02); degrader, targeted MS; Spodoptera frugiperda L5 larvae; injection, 0.1 nmol/mg).
The remaining activity of `CCCCCSc1nc2c([nH]1)c(=S)n(C)c(=S)n2C` is reported as 87% (AR; reporter gene, antagonist, PSA-luciferase; HeLa-A6; 10 µM, 24 h, added: 5 nM dihydrotestosterone; reference: maximal activity).
`CC(=O)N1C[C@H](O)C[C@H]1C(=O)NCc1ccccc1` has a ΔTm of 0.2 °C (VHL with Elongin B/C; differential scanning fluorimetry; 1 mM, added: VCB complex 5 µM).
Under “fold affinity enhancement”, `CC[C@H](C)[C@H](NC(=O)[C@H](CC(=O)O)NC(=O)[C@H](CO)NC(C)=O)C(=O)N[C@@H](CSCc1ccccc1)C(=O)N[C@@H](CC(=O)O)C(=O)N[C@@H](Cc1ccccc1C)C(=O)N[C@H](C(=O)N[C@@H](CC(C)C)C(=O)N[C@@H](CCCCN)C(=O)N[C@@H](CC(N)=O)C(=O)N[C@@H](Cc1ccc(O)cc1)C(=O)N1CCC[C@H]1C(N)=O)[C@@H](C)CC` is recorded as > 50 fold (Histone lysine acetyltransferase CREBBP, KIX domain (Crebbp, Mus musculus, UniProt P45481); KIX–MLL binding, inhibitor, fluorescence polarization; reference: wild-type MLL 847–858).
`N#C/C(=C\c1cccc(-c2ccncc2)c1)C(N)=O` — result for “max non-inhibitory concentration”: > 20 µM (Ribosomal protein S6 kinase alpha-5 (RPS6KA5, Homo sapiens, UniProt O75582, C440V); autophosphorylation, inhibitor; transfected COS-7; added: PMA).
Under junctional current, `O=C1c2ccccc2CCc2ccccc2N1CCCCOc1ccccc1` is recorded as “inhibited” (Gap junction alpha-8 protein (Gja8, Mus musculus, UniProt P28236); dual whole-cell voltage clamp; N2a cell pairs, transfected; 10 µM).
With `CC(C)[C@H]1CC[C@@]2(CO2)[C@H]2C(=O)CC(C(=O)O)=C[C@H]12` the KI(inact) was 150 ± 30 µM (Glyceraldehyde-3-phosphate dehydrogenase (GAPDH, Homo sapiens, UniProt P04406); covalent inhibitor).
`CNc1ccccc1C(=O)O[C@H]1C[C@H](n2cnc3c(N)ncnc32)O[C@@H]1COP(=O)(O)OP(=O)(O)O` gave an FRET efficiency of 0.96 ± 0.04 (Unconventional myosin-Va (Gallus gallus, UniProt Q02440, D297C/G292C/I296C/S293C/V295G); stopped-flow FRET; compound complex; 4 °C, added: 2 mM MgCl2).
`COc1c(F)c(F)c(C(=O)N[C@H]2[C@@H](O)[C@@H](CO)O[C@@H](S[C@@H]3O[C@H](CO)[C@H](O)[C@H](NC(=O)c4c(F)c(F)c(OC)c(F)c4F)[C@H]3O)[C@@H]2O)c(F)c1F` gave a binding stoichiometry of 0.89 (LGALS3; ITC; concentration not given, all parameters fitted).
`C[n+]1cn(C2OC(COP(=O)(O)OP(=O)([O-])OP(=O)(O)OCC3OC(n4cnc5c(=O)[nH]c(N)nc54)C(O)C3O)C(O)C2O)c2nc(NCc3ccccc3)[nH]c(=O)c21` (centres unmarked) gave a capping efficiency of 80.5% (DNA-directed RNA polymerase (Enterobacteria phage SP6, UniProt P06221); in vitro transcription, densitometry; short RNA).
`O=C1CCc2ccc(OCCCCN3CCN(c4cccc5c4ccn5Cc4ccccc4)CC3)cc2N1`: activity “inactive” (D(2) dopamine receptor (DRD2, Homo sapiens, UniProt P14416); human cells; concentration not given).
`CCc1nc2cc3ccccc3cc2cc1C(=O)N[C@@H](CCCCN)C(=O)N[C@@H](C/C=C/C[C@H](NC(=O)[C@H](CCCCN)NC(=O)c1cc2cc3ccccc3cc2nc1CC)C(=O)N1CCC[C@H]1C(=O)NCCCN)C(=O)N1CCC[C@H]1C(=O)NCCCN` has a residence time of 257 s ((CUG)10 RNA; SPR).
With `CN1CCC(CCNC(=O)c2ccc(C3(NC(=O)c4cc5cc(C(=O)O)cnc5n4C)CC3)cc2)CC1` the Kd was 0.015 µM (T1, FMN riboswitch RNA (Escherichia coli); ITC; KCl 100 mM).
The multivalent effect of `CCCN(CC(=O)N(CCC)CC(=O)N(CCC)CC(=O)N(CCC)CC(=O)N(CCC)CC(=O)N(CCC)CC(=O)N(CC(N)=O)Cc1cn(CCCNC(=O)CCCOc2cccc(-c3nc4ccc(-c5nc6ccc(N7CCN(C)CC7)cc6[nH]5)cc4[nH]3)c2)nn1)C(=O)CNCc1cn(CCCNC(=O)CCCOc2cccc(-c3nc4ccc(-c5nc6ccc(N7CCN(C)CC7)cc6[nH]5)cc4[nH]3)c2)nn1` is reported as < 1.8 (MBNL1–r(CUG)109 complex; MBNL1 displacement; 0.65 pmol r(CUG)109; unit not given, added: yeast tRNA 3.7 µM; reference: monomer 2 IC50 per module).
Under “kcat fold decrease”, `Nc1ncnc2c1ncn2[C@@H]1O[C@H](COP(=O)(O)OP(=O)(O)NP(=O)(O)O)[C@@H](O)[C@H]1O` is recorded as 1000 fold (S-adenosylmethionine synthase isoform type-2 (MAT2A, Homo sapiens, UniProt P31153); AdoMet formation, substrate; reference: ATP over analogue).
`CCCC(CC)Sc1nc2c([nH]1)c(=S)n(C)c(=O)n2C` (centres unmarked) has a remaining activity of 78% (AR; reporter gene, antagonist, PSA-luciferase; HeLa-A6; 10 µM, 24 h, added: 5 nM dihydrotestosterone; reference: maximal activity).
For `CC(C)(Cn1cc(-c2cnc3cccnn23)nn1)c1c[nH]c2ccccc12`, potentiation read “decreased” (Glucagon-like peptide 1 receptor (GLP1R, Homo sapiens, UniProt P43220); positive allosteric modulator, item: cAMP; added: GLP-1(9-36) L20A; reference: wild-type GLP-1(9-36)).
`C[C@@H](COc1ccc(F)cc1)C(=O)n1nc(N)c2ccc(CO)cc21` gave a relative potency of 30 fold (Cystic fibrosis transmembrane conductance regulator (CFTR, Homo sapiens, UniProt P13569); ion current, potentiator, inside-out patch clamp; reference: (S)-enantiomer EC50 over compound EC50).
`CC(C)C[C@H](NC(=O)[C@H](Cc1ccc(O)cc1)NC(=O)[C@@H](CCCNC(=N)N)NC(=O)[C@@H](CO)NC(=O)[C@H](Cc1ccccc1)NC(=O)[C@H](CC1CCCCC1)NC(=O)[C@H](CC(=O)O)NC(=O)CN1CCN(CC(=O)O)CCN(CC(=O)O)CCN(CC(=O)O)CC1)C(=O)N[C@@H](Cc1c[nH]c2ccccc12)C(=O)N[C@@H](CO)C(N)=O` has a koff of 0.0043 s⁻¹ (Urokinase plasminogen activator surface receptor (Homo sapiens, UniProt Q03405); binding, SPR).
`COC(=O)C1=Cc2ccccc2S1(=O)=O` — result for “E3 ligase activity”: “no effect” (E3 ubiquitin-protein ligase synoviolin, residues 235-617 (SYVN1, Homo sapiens, UniProt Q86TM6); in vitro ubiquitination; 0, 5, 10 µM, Hrd1 C-terminal domain).
For `C[C@@H]1O[C@@H](O[C@@H]2[C@H](O)[C@H](O[C@@H]3[C@@H](O)[C@@H](O)C(O)O[C@H]3C)O[C@H](CO)[C@H]2O)[C@H](O)[C@H](O)[C@H]1O` (some centres unmarked), binding read “no binding” (CD209 antigen (CD209, Homo sapiens, UniProt Q9NNX6); binding to extracellular domain, STD NMR; concentration not given, protein:ligand ratio 1:30).
The –TΔS of `COc1c(F)c(F)c(C(=O)N[C@H]2[C@@H](O)[C@@H](CO)O[C@@H](S[C@@H]3O[C@H](CO)[C@H](O)[C@H](NC(=O)c4c(F)c(F)c(OC)c(F)c4F)[C@H]3OS(=O)(=O)O)[C@@H]2O)c(F)c1F` is reported as 8.8 ± 0.6 kJ/mol (LGALS3; ITC).
For `CC1=C(O)C(=O)C=C2C1=CC=C1[C@@]2(C)CC[C@@]2(C)[C@@H]3C[C@](C)(C(=O)NCCOCCOCCOCCOCC(=O)N[C@H](C(=O)N4C[C@H](O)C[C@H]4C(=O)N[C@@H](C)c4ccc(-c5scnc5C)cc4)C(C)(C)C)CC[C@]3(C)CC[C@]12C`, protein level read “decreased” (Nuclear receptor subfamily 4 group A member 1 (Nr4a1, Mus musculus, UniProt P12813); degrader, immunoblotting; SM1 mouse melanoma; concentration not given, 16 h).
`COC(=O)c1ccc(CNC(=O)[C@@H]2C[C@@H](O)CN2C(=O)Cc2ccccc2)cc1`: “binding free energy (ΔG)” -20.29 ± 0.0837 kJ/mol (VHL with Elongin B/C; isothermal titration calorimetry; 25 °C).
For `NC(=O)C1CCCCNC(=O)C(CCCNC(=O)c2cnccn2)NC(=O)C(Cc2ccco2)NC(=O)C(CC2CC2)NC(=O)C=CC(=O)N1` (centres unmarked), the enrichment factor was 1.2 (Receptor tyrosine-protein kinase erbB-4 (ERBB4, Homo sapiens, UniProt Q15303); DNA-templated library selection; one selection round).
For `CC(=O)N[C@H]1[C@@H](O[C@H](C)[C@H](NC(=O)[C@@H](NC(=O)CNC(=O)[C@@H](N)Cc2c[nH]cn2)C(C)C)C(=O)N[C@@H](CO)C(=O)N[C@@H](C)C(=O)N2CCC[C@H]2C(=O)N[C@@H](CC(=O)O)C(N)=O)O[C@H](CO)[C@H](O)[C@@H]1O[C@@H]1O[C@H](CO)[C@H](O)[C@H](O)[C@H]1O`, the –TΔS was -14.2 kJ/mol (LGALS3; binding, isothermal titration calorimetry; full-length protein).
